# Assay results collected from several papers.
# Numbered parts are unrelated; each lists some results of a single study. Changes are numbered by the printed parent chain.

# Block 1
# Target: CCNF, cyclin fold, Cln2 fusion (human)
# Technique: yeast growth competition, sequencing
# Matrix: yeast
# Notes: strong parent motif
# Relative to: not given
# Direction: higher = stronger binding
# Starting sequence: PKN2 docking peptide (human); VSAVRKLDFSDTM; partner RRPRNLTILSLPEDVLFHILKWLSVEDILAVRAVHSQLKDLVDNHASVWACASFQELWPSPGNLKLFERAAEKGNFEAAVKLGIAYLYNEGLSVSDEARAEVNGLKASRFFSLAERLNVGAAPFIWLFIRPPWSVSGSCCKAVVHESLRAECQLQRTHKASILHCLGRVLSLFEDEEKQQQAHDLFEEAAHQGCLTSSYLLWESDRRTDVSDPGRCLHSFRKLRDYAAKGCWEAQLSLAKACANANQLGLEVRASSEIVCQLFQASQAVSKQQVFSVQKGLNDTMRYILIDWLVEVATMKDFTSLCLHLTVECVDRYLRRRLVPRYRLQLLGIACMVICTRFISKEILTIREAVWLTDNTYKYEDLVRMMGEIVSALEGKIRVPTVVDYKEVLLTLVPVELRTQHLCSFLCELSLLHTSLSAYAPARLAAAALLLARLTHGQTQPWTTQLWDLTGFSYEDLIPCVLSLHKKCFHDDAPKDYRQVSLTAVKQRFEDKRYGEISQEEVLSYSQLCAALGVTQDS
Variant,normalised enrichment score
VSAVRKLDFSKTM [D11K],7.41
VSAVRKLDFSITM [D11I],7.45
VSAVRKLDISDTM [F9I],3.95
VSNVRKLDFSDTM [A3N],2.24
VSAVRKKDFSDTM [L7K],0.373
VSAVRKLDCSDTM [F9C],0.817
VSAVRKFDFSDTM [L7F],0.226
VSAVIKLDFSDTM [R5I],1.22
VSAVRKLDFHDTM [S10H],6.99
VSAVRKNDFSDTM [L7N],-0.00565
VSAVRSLDFSDTM [K6S],6.44
VSAVRKLNFSDTM [D8N],7.65
VSAYRKLDFSDTM [V4Y],6.9
VSRVRKLDFSDTM [A3R],3.2
VSAVRKLDFYDTM [S10Y],7.17

# Block 2
# Target: Interferon regulatory factor 3, full length, phosphomimetic (IRF3, Homo sapiens, UniProt Q14653, residues 1-427, S386D/S396D/S398D/S402D/T404D/S405D)
# Technique: protein-binding microarray
# Molecule type: double-stranded DNA, one strand shown
# Matrix: in vitro
# Tested at: 2540 nM top
# Notes: 60-bp whole probe
# Together with: salmon DNA 0.4 mg/ml
# Relative to: random background probes
# Direction: higher = stronger binding
# Shared flanks, not repeated: GCCTAGCAC … GTCTTGATTCGCTTGACGCTGCTG
# Target sequence (chain): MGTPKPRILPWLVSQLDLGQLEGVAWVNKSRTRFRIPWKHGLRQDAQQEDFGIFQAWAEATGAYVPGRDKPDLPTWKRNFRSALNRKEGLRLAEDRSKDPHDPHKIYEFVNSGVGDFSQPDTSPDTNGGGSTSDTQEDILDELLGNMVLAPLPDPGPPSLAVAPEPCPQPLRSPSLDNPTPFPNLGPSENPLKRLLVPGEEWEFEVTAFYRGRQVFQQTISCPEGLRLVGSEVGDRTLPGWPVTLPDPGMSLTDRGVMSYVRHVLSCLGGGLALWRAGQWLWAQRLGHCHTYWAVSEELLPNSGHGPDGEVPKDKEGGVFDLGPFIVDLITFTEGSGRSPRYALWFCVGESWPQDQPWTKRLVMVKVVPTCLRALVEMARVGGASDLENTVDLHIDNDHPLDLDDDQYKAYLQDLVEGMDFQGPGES
Sequence,fitted relative affinity [z-score]
TTAGAACTGGGGTGTCGATTAGTGCTA,-0.401
GCTGGTCTCTAACTCAAGATGTGCTAG,0.501
GACGGACTGGTTCTCCTGACGTGCTAG,0.0142
TCACGTGTTTTTCTCCTACTGTGCTAG,0.429
TCAAAGCTCCTATCTTATACTGTGCTA,0.746
TCAATTTCTGTTTTTGCACTGTGCTAG,3.33
TTAGAAATCGGGTATCGATTAGTGCTA,0.0974
TCACCCCTAGGGGGCAGTATGTGCTAG,0.134
TTAGGACTGGGGTTTGGGTTAGTGCTA,-1.12
GACGAACTGAGTCGCGAGACGTGCTAG,-0.316
TCATATGTCATTTACATACTGTGCTAG,1.11
GACGGTTTCGGTTCTGGGACGTGCTAG,11.2
CTCCCTTTCAGTTTTCCTCTGTGCTAG,3.3
TTAGGTATCGGGTTTCGGTAAGTGCTA,3.56
TTGGGTTTCGACACTGGGTTAGTGCTA,1.27
TCATGCTCATTTTTCAGACTGTGCTAG,1.28
AACGATATCGGGTTTCGAGACGTGCTA,1.2
GACGATATGAGTATCGAGACGTGCTAG,0.0865
GACGGTCTCGTTCTCGGGACGTGCTAG,1.83

# Block 3
# Target: Sal-like protein 4, full length isoform B (SALL4, Homo sapiens, UniProt Q9UJQ4-2, residues 1-616)
# Technique: universal PBM
# Molecule type: double-stranded DNA, one strand shown
# Matrix: in vitro
# Tested at: not given
# Notes: 8-mer, flanks averaged, mean of replicates
# Direction: higher = stronger binding
Sequence,E-score
ACGGTGAG,-0.15
AAAGCCTT,-0.164
ACGAAACC,0.0459
AACCTCTT,0.182
AGGCGTTG,-0.0653
GTTAGGGA,-0.0558
ACAAGCCG,-0.15
AGTGGCGG,-0.15
ATCCAGAG,0.0147
ATACCTTC,0.108
AATAGTGA,0.223
GCGTGGTA,-0.0589
GGGCCACA,-0.204
AGACCGGC,-0.366
AATAGTCG,0.0114
AATGTCGT,0.126
ATTACTTC,0.237
CTTCCTTC,-0.122
CCCAGGGC,-0.434

# Block 4
# Target: ABI1, truncated, D143A, DHFR fusion (Arabidopsis thaliana)
# Technique: DHFR PCA, deep sequencing
# Matrix: yeast
# Notes: methotrexate growth selection, single substitutions
# Together with: (+)-ABA 2500 µM
# Relative to: wild-type fitted maximum
# Direction: higher = stronger binding
# Starting sequence: PYL1, truncated, DHFR fusion (Arabidopsis thaliana); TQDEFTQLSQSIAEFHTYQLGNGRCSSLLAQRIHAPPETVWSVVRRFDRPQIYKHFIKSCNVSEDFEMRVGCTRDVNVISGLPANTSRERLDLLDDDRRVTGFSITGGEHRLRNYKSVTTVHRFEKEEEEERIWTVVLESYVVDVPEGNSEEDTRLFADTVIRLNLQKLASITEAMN
Variant,relative binding score
V136P,14.5%
R32C,91.7%
V70S,89.2%
R46M,99%
R24P,75.6%
S140D,3.46%
L8A,90.9%
V136G,61.9%
V76Y,87.5%
S27C,87.9%
E131M,98.8%
E127N,102%
T73F,97.3%
E128Y,101%
T160Y,94.7%
Q10S,103%
I172M,90.7%
V40P,41.6%
E14D,82.9%

# For quick reference, copied from above (block 2):
Sequence,fitted relative affinity [z-score]
TCATATGTCATTTACATACTGTGCTAG,1.11
TTGGGTTTCGACACTGGGTTAGTGCTA,1.27
GACGGTTTCGGTTCTGGGACGTGCTAG,11.2
TCAATTTCTGTTTTTGCACTGTGCTAG,3.33
GACGATATGAGTATCGAGACGTGCTAG,0.0865
CTCCCTTTCAGTTTTCCTCTGTGCTAG,3.3
TTAGGTATCGGGTTTCGGTAAGTGCTA,3.56
TTAGGACTGGGGTTTGGGTTAGTGCTA,-1.12
TCAAAGCTCCTATCTTATACTGTGCTA,0.746
GCTGGTCTCTAACTCAAGATGTGCTAG,0.501
TCATGCTCATTTTTCAGACTGTGCTAG,1.28
